{"data": "Measured values pooled from the literature", "target": "Tyrosine-protein kinase CSK (CSK, Homo sapiens, UniProt P41240)", "note": "Compare with care: the assays were run in different laboratories. Several values in a cell are separate wells, animals, samples, runs or records."}
{"Compound": "COc1cc(Nc2nccc(-c3cnn4nc(OC)ccc34)n2)cc(C(F)(F)F)c1", "assay": "binding, competition with immobilised ligand", "setting": "1 µM", "measurement": "remaining binding", "result": "83%"}
{"Compound": "Cc1nc2c(F)cc(-c3nc(Nc4ccc(CNC(=O)CCCCCCC(=O)NO)cc4)ncc3F)cc2n1C(C)C", "assay": "enzyme activity, inhibitor", "setting": "1 µM", "measurement": "inhibition", "result": "33%"}
{"Compound": "Cc1cccc(O[C@H]2CCC[C@@H](C(C)CNCc3ccncc3)C2)c1 (relative stereo)", "assay": "kinase activity, kinome panel screening", "setting": "10 µM", "measurement": "inhibition", "result": "-11%"}
{"Compound": "Nc1ncc2c(n1)-c1c([nH]c3ccc(C4=CCOCC4)cc13)CCC2", "assay": "binding, competition with immobilised ligand", "setting": "1 µM", "measurement": "remaining binding", "result": "81%"}
{"Compound": "Cc1cccc(-c2ccc3nc(NC(=O)C4CCCO4)nn3c2)c1 (centres unmarked)", "assay": "enzyme activity, Dundee kinase panel", "setting": "10 µM", "measurement": "remaining activity", "result": "84%"}
{"Compound": "CCN1CCN(Cc2ccc(NC(=O)c3ccc(C)c(NC(=O)c4cncc(-c5cccs5)c4)c3)cc2C(F)(F)F)CC1", "assay": "binding, competition with immobilised ligand", "setting": "1 µM", "measurement": "remaining binding", "result": "1.6%"}
{"Compound": "COc1ccc(NC(=O)Nc2ccc3c(c2)C(=O)N(C(C)CO)CC(C)C(CN(C)Cc2ccc4c(c2)OCO4)O3)cc1 (centres unmarked)", "assay": "kinase activity, KinaseProfiler", "setting": "0.03 µM, species human", "scale": "baseline: control", "measurement": "remaining activity", "result": "104%"}
{"Compound": "C=CC(=O)N1Cc2nc(-c3cc(-c4cc(Cl)cnc4Cl)c(F)cc3F)n(-c3ccncn3)c2C1", "assay": "enzyme activity, inhibitor", "setting": "1 µM", "measurement": "inhibition", "result": "6.3%"}
{"Compound": "NC(=O)C[C@H]1CCc2sc3ncnc(O[C@H]4CC[C@H](N5CCOCC5)CC4)c3c21", "assay": "enzyme activity, inhibitor", "setting": "10 µM", "measurement": "inhibition", "result": "21%"}
{"Compound": "Nc1nc(Nc2ccccc2)sc1C(=O)c1ccccc1", "assay": "enzyme activity, inhibitor", "setting": "10 µM", "measurement": "remaining activity", "result": "57%"}
{"Compound": "O=c1c(-c2ccc(Cl)c(CN3CCOCC3)c2)coc2cc(O)ccc12", "assay": "enzyme activity, inhibitor", "setting": "1 µM", "measurement": "remaining activity", "result": "122%"}
{"Compound": "O=C=[N][Ru-4]123([n]4c5ccc(O)cc5c5c6c(c7cc(F)c[n+]1c7c54)C(=O)NC6=O)[S+]1CC[S+]2CC[S+]3CC1 (centres unmarked)", "assay": "enzyme activity", "setting": "100 nM, human enzyme, together with: 10 µM ATP", "scale": "baseline: untreated", "measurement": "remaining activity", "result": "102%"}
{"Compound": "CN1CCN(Cc2ccc(-c3ccc(CO[C@H]4CCC[C@@H]4NC(=O)c4cc(-c5cnn(C)c5)cnc4N)cc3)cc2)CC1", "assay": "enzyme activity, inhibitor", "setting": "0.1 µM", "measurement": "inhibition", "result": "7%"}
{"Compound": "Cc1cnc2nc1Nc1cccc(c1)COC/C=C/COCc1cc(ccc1OCCN1CCOCC1)N2", "assay": "cell-free assay", "setting": "0.1 µM", "measurement": "remaining signal", "result": "78%"}
{"Compound": "Cc1cccc(-c2ccc3nc(NC(=O)C4CCOCC4)nn3c2)c1", "assay": "enzyme activity, Dundee kinase panel", "setting": "10 µM", "measurement": "remaining activity", "result": "81%"}
{"Compound": "COCC12C(=O)NC3C4(C(OC)CC1O)C1CC5(O)C(OC)C(O)C(OC(C)=O)(C1C5OC(=O)c1ccccc1)C3(O)C(OC)C24 (centres unmarked)", "assay": "kinase activity, inhibitor, ProQinase kinase profiling", "setting": "25 µM", "scale": "baseline: control", "measurement": "remaining activity", "result": "85% and 84%"}
{"Compound": "C[C@H]1CN(C(=O)c2cn(-c3ccnc(N)n3)c3cc(C#CC4(O)CCCCC4)ccc23)CCN1", "assay": "enzyme activity, inhibitor, FRET", "setting": "1 µM", "measurement": "inhibition", "result": "3%"}
{"Compound": "CN1CC[C@@H](COc2cnc(C#N)cc2-c2ccn3nc(NC(=O)C4CC4)cc3c2)C1", "assay": "enzyme activity, inhibitor", "setting": "1 µM", "measurement": "inhibition", "result": "-12%"}
{"Compound": "CNC(=O)C[C@H](Cc1ccc(C#N)cc1)NC(=O)c1cc(-c2ccc(CN[C@H](C)c3ccc(C)cc3)o2)ccc1Cl", "assay": "enzyme activity, inhibitor", "setting": "1 µM", "measurement": "activity vs control", "result": "119%"}
{"Compound": "C=CC(=O)Nc1cccc(-c2cnc3[nH]cc(C(=O)NC(C)(C)C)c3n2)c1", "assay": "kinase activity", "setting": "0.1 µM", "measurement": "inhibition", "result": "7% and 1%"}
{"note": "Some of these lines once more:"}
{"Compound": "Nc1nc(Nc2ccccc2)sc1C(=O)c1ccccc1", "assay": "enzyme activity, inhibitor", "setting": "10 µM", "measurement": "remaining activity", "result": "57%"}
{"Compound": "O=c1c(-c2ccc(Cl)c(CN3CCOCC3)c2)coc2cc(O)ccc12", "assay": "enzyme activity, inhibitor", "setting": "1 µM", "measurement": "remaining activity", "result": "122%"}
{"Compound": "O=C=[N][Ru-4]123([n]4c5ccc(O)cc5c5c6c(c7cc(F)c[n+]1c7c54)C(=O)NC6=O)[S+]1CC[S+]2CC[S+]3CC1 (centres unmarked)", "assay": "enzyme activity", "setting": "100 nM, human enzyme, together with: 10 µM ATP", "scale": "baseline: untreated", "measurement": "remaining activity", "result": "102%"}
